Results from different studies.
Lines come from different studies, so protocols differ.

SMILES | medium | concentration | pH | temperature | notes | absorption maximum
O=c1cc(/C=C/c2ccc(N(c3ccccc3)c3ccccc3)cc2)oc(/C=C/c2ccc(N(c3ccccc3)c3ccccc3)cc2)c1 | acetonitrile/water 1:19 v/v | 10 µM | – | 298 K | aggregate nanoparticle suspension | 413 nm
CC1(C)C(/C=C/C2=C(Cl)C(=C/C=C3/N(CCCCCC(=O)O)c4ccccc4C3(C)C)/C[N+](C)(C)C2)=[N+](CCCCCC(=O)O)c2ccccc21 | methanol | – | – | – | – | 753 nm
C=Cc1ccccc1[B-]12OC(=O)C(c3ccccc3)=N[N+]1=C(C)c1ccc(N(CC)CC)cc1O2 (centres unmarked) | toluene | – | – | – | – | 470 nm
COC(=O)c1ccccc1-c1c2ccc(=[N+](C)C)cc-2oc2c1ccc1cccc(O)c12 | 12.5 mM aqueous NaOH | – | pH 12.1 | – | 10% DMSO | 632 nm
CCN(CC)c1ccc2c(c1)O[B-]1(c3ccccc3)OC(=O)C(c3ccccc3)=N[N+]1=C2 (centres unmarked) | toluene | – | – | – | – | 472 nm
CCCCN1C(=O)c2cccc3c(NCCCN4CCOCC4)ccc(c23)C1=O | dioxane | – | – | – | – | 426 nm
CCC1=[N+]2N=C(c3ccccc3)C(=O)O[B-]2(c2ccccc2)Oc2cc(OC)ccc21 (centres unmarked) | toluene | – | – | – | – | 425 nm
CN1CCN(c2ccc(/C=C/c3cc(=O)cc(/C=C/c4ccc(N5CCN(C)CC5)cc4)o3)cc2)CC1 | acetonitrile | 10 µM | – | 298 K | – | 404 nm
CCCCN1C(=O)c2cccc3c(NCCCCCCCCN4CCOCC4)ccc(c23)C1=O | methanol | – | – | – | – | 443 nm
O=c1cc(/C=C/c2ccc(N3CCOCC3)cc2)oc(/C=C/c2ccc(N3CCOCC3)cc2)c1 | acetonitrile | 10 µM | – | 298 K | – | 396 nm
CCCCN1C(=O)c2cccc3c(NCCCCCCCCCCN4CCOCC4)ccc(c23)C1=O | water | – | pH 6.0 | – | – | 452 nm
O=c1cc(/C=C/c2ccc(N3CCCC3)cc2)oc(/C=C/c2ccc(N3CCCC3)cc2)c1 | acetonitrile | 10 µM | – | 298 K | – | 423 nm
COC(=O)c1ccccc1-c1c2ccc(=O)cc-2oc2c1ccc1cccc(O)c12 | 12.5 mM aqueous NaOH | – | pH 12.1 | – | 10% DMSO | 599 nm
CCN(CC)c1ccc2c(c1)O[B-]1(c3ccccc3C#N)OC(=O)C(c3ccccc3)=N[N+]1=C2CC(C)C (centres unmarked) | toluene | – | – | – | – | 471 nm
CN(C)c1ccc(/C=C/c2cc(=O)cc(/C=C/c3ccc(N(C)C)cc3)o2)cc1 | acetonitrile | 10 µM | – | 298 K | – | 417 nm
CCN(CC)c1ccc2c(c1)O[B-]1(c3ccccc3)OC(=O)C(c3ccccc3)=N[N+]1=C2C (centres unmarked) | toluene | – | – | – | – | 470 nm
CCCCN1C(=O)c2cccc3c(NCCN4CCOCC4)ccc(c23)C1=O | acetonitrile | – | – | – | – | 430 nm

A few entries again:
SMILES | medium | concentration | pH | temperature | notes | absorption maximum
C=Cc1ccccc1[B-]12OC(=O)C(c3ccccc3)=N[N+]1=C(C)c1ccc(N(CC)CC)cc1O2 (centres unmarked) | toluene | – | – | – | – | 470 nm
COC(=O)c1ccccc1-c1c2ccc(=[N+](C)C)cc-2oc2c1ccc1cccc(O)c12 | 12.5 mM aqueous NaOH | – | pH 12.1 | – | 10% DMSO | 632 nm
